Published values from different studies.
Compare with care: the assays were run in different laboratories. ± marks the error that the study gave.

With `METAVAYYKDGVPYDDKGQVIITLLNGTPDGSGSGGGGGK (colicin E1 fragment 1–40; sequence looked up)` the helical content was 0% (far-UV CD; peptide, 50 mM sodium phosphate).
The tissue uptake of `CC(=O)N(O)CCCCCNC(=O)CCC(=O)N(O)CCCCCNC(=O)CCC(=O)N(O)CCCCCNC(=S)Nc1ccc(NC(=S)NCCOCCOCCOCCOCCC(=O)N[C@@H](CCC(=O)NCCOCCOCCOCCOCCC(=O)NCCCC[C@@H]2NC(=O)[C@@H](Cc3ccccc3)NC(=O)[C@H](CC(=O)O)NC(=O)CNC(=O)[C@H](CCCNC(=N)N)NC2=O)C(=O)NCCOCCOCCOCCOCCC(=O)NCCCC[C@@H]2NC(=O)[C@@H](Cc3ccccc3)NC(=O)[C@H](CC(=O)O)NC(=O)CNC(=O)[C@H](CCCNC(=N)N)NC2=O)cc1` [zirconium-89 labelled] is reported as 6.81 ± 0.71 %ID/g (athymic nude mice female tumour-bearing, liver; intravenous, 100 µCi, 4 h).
The Tmax of `COc1cccc2c1C(=O)c1c(O)c3c(c(O)c1C2=O)C[C@@](O)(C(=O)CO)C[C@@H]3O[C@H]1C[C@H](NC(=O)[C@@H]2CCCN2C(=O)CNC(=O)[C@H](CC(C)C)NC(=O)[C@H](C)NC(=O)CP(=O)(O)O)[C@H](O)[C@H](C)O1` is reported as 5 min (mouse, E0771 tumour-bearing, heart; intravenous, 92 µmol/kg).
`N=C(N)NCCC[C@@H]1NC(=O)[C@H](CCCCNC(=O)[C@H](CC(=O)O)NC(=O)[C@H](CC(=O)O)NC(=O)[C@H](CC(=O)O)NC(=O)CC[C@H](NC(=O)CCOCCOCCOCCOCCNC(=O)c2ccc(NN)nc2)C(=O)N[C@@H](CC(=O)O)C(=O)N[C@@H](CC(=O)O)C(=O)N[C@@H](CC(=O)O)C(=O)NCCCC[C@@H]2NC(=O)[C@@H](Cc3ccccc3)NC(=O)[C@H](CC(=O)O)NC(=O)CNC(=O)[C@H](CCCNC(=N)N)NC2=O)NC(=O)[C@@H](Cc2ccccc2)NC(=O)[C@H](CC(=O)O)NC(=O)CNC1=O` [technetium-99m labelled] has a tissue uptake of 0.3 ± 0.01 %ID/g (U-87 MG xenograft athymic nude mice, tumor; intravenous, 60 min, added: RGD2 14 mg/kg co-injected).
`COc1cccc2c1C(=O)c1c(O)c3c(c(O)c1C2=O)C[C@@](O)(C(=O)CO)C[C@@H]3O[C@H]1C[C@H](NC(=O)[C@H](CC(C)C)NC(=O)[C@H](C)NC(=O)[C@H](CC(C)C)NC(=O)CCNC(=O)CCC(=O)O)[C@H](O)[C@H](C)O1` has an AUC of 25.6 µM·h (mouse, E0771 tumour-bearing, tumor; intravenous, 92 µmol/kg).
`CC(C)C[C@@H]1NC(=O)[C@@H]2CSSC[C@@H](C(=O)NCC(N)=O)NC(=O)[C@H](Cc3ccccc3)NC(=O)CNC(=O)[C@H](CC(N)=O)NC(=O)[C@@H]3CCCN3C(=O)CNC(=O)[C@@H]3CSSC[C@H](NC(=O)[C@H](CO)NC(=O)[C@H]([C@@H](C)O)NC(=O)[C@@H]4CCCN4C(=O)[C@H](C)NC(=O)[C@H](Cc4c[nH]c5ccccc45)NC(=O)[C@H](CC(=O)O)NC(=O)CNC(=O)[C@H](CCCNC(=N)N)NC(=O)CNC(=O)[C@H](CCC(N)=O)NC(=O)[C@@H]4CCCN4C(=O)[C@@H](NC(=O)CNC(=O)CN4CCN(CC(=O)O)CCN(CC(=O)O)CCN(CC(=O)O)CC4)CSSC[C@H](NC(=O)CNC(=O)[C@H](C)NC1=O)C(=O)N[C@@H](C(C)C)C(=O)N3)C(=O)N[C@@H](CO)C(=O)N[C@@H](CCC(N)=O)C(=O)N[C@@H](CC(=O)O)C(=O)N[C@@H](CO)C(=O)N[C@@H](CC(=O)O)C(=O)N2` [copper-64 labelled] has a tissue uptake of 4.47 ± 1.21 %ID/g (64Cu microPET; female nude mice, U-87 MG xenograft, tumour; intravenous, 1 h).
`CCN1C(=CC=CC=CC2=[N+](CCCCCC(=O)NCCCC[C@H](NC(=O)CN3CCN(CC(=O)O)CCN(CC(=O)O)CCN(CC(=O)O)CC3)C(=O)NCC(=O)NCC(=O)N[C@@H](Cc3ccc(O)cc3)C(=O)NCC(=O)N[C@H]3CSSC[C@@H]4NC(=O)CNC(=O)[C@H](C)NC(=O)[C@H](CC(C)C)NC(=O)[C@@H]5CSSC[C@@H](C(=O)NCC(N)=O)NC(=O)[C@H](Cc6ccccc6)NC(=O)CNC(=O)[C@H](CC(N)=O)NC(=O)[C@@H]6CCCN6C(=O)CNC(=O)[C@H](CSSC[C@H](NC(=O)[C@H](CO)NC(=O)[C@H]([C@@H](C)O)NC(=O)[C@@H]6CCCN6C(=O)[C@H](C)NC(=O)[C@H](Cc6c[nH]c7ccccc67)NC(=O)[C@H](CC(=O)O)NC(=O)CNC(=O)[C@H](CCCNC(=N)N)NC(=O)CNC(=O)[C@H](CCC(N)=O)NC(=O)[C@@H]6CCCN6C3=O)C(=O)N[C@@H](CO)C(=O)N[C@@H](CCC(N)=O)C(=O)N[C@@H](CC(=O)O)C(=O)N[C@@H](CO)C(=O)N[C@@H](CC(=O)O)C(=O)N5)NC(=O)[C@H](C(C)C)NC4=O)c3ccc4c(S(=O)(=O)[O-])cc(S(=O)(=O)O)cc4c3C2(C)C)C(C)(C)c2c1ccc1c(S(=O)(=O)O)cc(S(=O)(=O)O)cc21` (single isomer, unassigned) [copper-64 labelled] has a tumour uptake of 4.19 ± 0.36 %ID/g (microPET; female athymic nude mouse, U-87 MG xenograft, tumour; intravenous, 100 µCi, 2 h).
For `CSCC[C@H](NC(=O)[C@H](CC(C)C)NC(=O)[C@H](Cc1cnc[nH]1)NC(=O)CNC(=O)[C@@H](NC(=O)[C@H](C)NC(=O)[C@H](Cc1c[nH]c2ccccc12)NC(=O)[C@H](CCC(N)=O)NC(=O)c1ccc(NC(=O)CN2CCN(CC(=O)O)CCN(CC(=O)O)CCN(CC(=O)O)CC2)cc1)C(C)C)C(N)=O`, the excreted dose was 78.7 ± 2.53% (ICR SCID mouse (PC-3 tumour), urine and bladder contents; intravenous, 185 kBq, 1 h).
`Cc1ccccc1NC(=O)Nc1ccc(CC(=O)N[C@@H](CCCCNC(=O)/C=C/c2cccnc2)C(=O)N[C@@H](CCCC(=O)O)C(=O)NC2(C(=O)NCCOCCOCCOCCOCC(=O)N[C@@H](CCCCNC(=S)Nc3ccc(C[C@H]4CN(CC(=O)O)CCN(CC(=O)O)CCN4CC(=O)O)cc3)C(N)=O)CCCCC2)cc1` [fluorine-18 labelled] gave a tumour-to-blood ratio of 5.1 ± 0.9 (female C57BL/6 mice, B16-F10 tumour, tumour and blood; intravenous, 2 h; baseline: tumour over blood).
`N=C(N)NCCC[C@@H]1NC(=O)[C@H](CCCCNC(=O)CNC(=O)CNC(=O)CNC(=O)CC[C@H](NC(=O)CCOCCOCCOCCOCCNC(=O)c2ccc(NN)nc2)C(=O)NCC(=O)NCC(=O)NCC(=O)NCCCC[C@@H]2NC(=O)[C@@H](Cc3ccccc3)NC(=O)[C@H](CC(=O)O)NC(=O)CNC(=O)[C@H](CCCNC(=N)N)NC2=O)NC(=O)[C@@H](Cc2ccccc2)NC(=O)[C@H](CC(=O)O)NC(=O)CNC1=O` [technetium-99m labelled] gave a tissue uptake of 4.74 ± 1.09 %ID/g (γ-counting; female athymic nude mice, U-87 MG xenograft, intestine; intravenous, 2 h).
`CC(C)[C@H](NC(=O)[C@@H](NC(=O)CCOCCOCCNC(=O)CCCc1cn(CC(O)CN2CCN(CC(=O)O)CCN(CC(=O)O)CCN(CC(=O)O)CC2)nn1)[C@@H](C)O)C(=O)N[C@@H](CCCNC(=N)N)C(=O)N[C@H](C(=O)N[C@@H](CO)C(=O)N[C@@H](C)C(=O)N[C@@H](CC(=O)O)C(=O)O)[C@@H](C)O` (stereo partly shown) has a tumour concentration of 20.2 ± 2.2 µM (quantitative T1 mapping; athymic nude mouse, male, LNCaP xenograft, tumour; concentration not given, 30 min post-injection).
For `CN[C@@](C)(C[18F])C(=O)O`, the tracer uptake was 0.9 %ID/g (DU-145 tumour model; host not given, muscle; 2 h, tumour-bearing).
`melittin`: “heat capacity change” -0.47 kcal/mol/K (membrane partitioning, CD van't Hoff analysis; POPC/POPG LUVs 90:10%; concentration not given, 5 to 60 °C).

Excerpt of the above:
`N=C(N)NCCC[C@@H]1NC(=O)[C@H](CCCCNC(=O)CNC(=O)CNC(=O)CNC(=O)CC[C@H](NC(=O)CCOCCOCCOCCOCCNC(=O)c2ccc(NN)nc2)C(=O)NCC(=O)NCC(=O)NCC(=O)NCCCC[C@@H]2NC(=O)[C@@H](Cc3ccccc3)NC(=O)[C@H](CC(=O)O)NC(=O)CNC(=O)[C@H](CCCNC(=N)N)NC2=O)NC(=O)[C@@H](Cc2ccccc2)NC(=O)[C@H](CC(=O)O)NC(=O)CNC1=O` [technetium-99m labelled] gave a tissue uptake of 4.74 ± 1.09 %ID/g (γ-counting; female athymic nude mice, U-87 MG xenograft, intestine; intravenous, 2 h).
